Measurements pooled from the literature.
Protocols differ between the studies behind these lines. Values joined by “and” are separate records of one study, mostly repeats; a detail may differ. ± gives the spread as reported.
Mcl1 152-308: Mcl1 152-308 (Mus musculus, UniProt P97287)
UniProt P97287, sequence (whole entry, looked up): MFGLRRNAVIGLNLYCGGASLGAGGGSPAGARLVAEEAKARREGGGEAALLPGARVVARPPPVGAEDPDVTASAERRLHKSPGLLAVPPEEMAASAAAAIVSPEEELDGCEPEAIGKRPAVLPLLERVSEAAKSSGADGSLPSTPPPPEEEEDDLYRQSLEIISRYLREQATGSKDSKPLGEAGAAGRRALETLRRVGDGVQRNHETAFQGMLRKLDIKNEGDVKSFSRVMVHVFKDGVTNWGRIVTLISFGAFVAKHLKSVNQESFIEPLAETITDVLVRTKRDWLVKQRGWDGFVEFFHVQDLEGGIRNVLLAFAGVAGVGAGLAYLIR
MAP2K1: MAP2K1 (Homo sapiens, UniProt Q02750)
B1: ANGPT1 283-498 (Homo sapiens, UniProt Q15389); chain FRDCADVYQAGFNKSGIYTIYINNMPEPKKVFCNMDVNGGGWTVIQHREDGSLDFQRGWKEYKMGFGNPSGEYWLGNEFIFAITSQRQYMLRIELMDWEGNRAYSQYDRFHIGNEKQNYRLYLKGHTGTAGKQSSLILHGADFSTKDADNDNCMCKCALMLTGGWWFDACGPSNLNGMFYTAGQNHGKLNGIKWHYFKGPSYSLRSTTMMIRPLDF
B2: IgG L:G68E; V domains shown; VH QVQLVQSGAEVKKPGASVKVSCKASGYTFTNYGLSWVRQAPGQGLEWMGWISANNGDTNYGQEFQGRVTMTTDTSTSTAYMELRSLRSDDTAVYYCARDSSSSWARWFFDLWGRGTLVTVSS; VL SYVLTQPPSVSVAPGKTARITCGGNIIGSKLVHWYQQKPGQAPVLVIYDDGDRPSGIPERFSGSNSENTATLTISRVEAGDEADYYCQVWDTGSDPVVFGGGTKLTVL
B3: CDC48A 1-190 (Arabidopsis thaliana, UniProt P54609); chain MSTPAESSDSKSKKDFSTAILERKKSPNRLVVDEAINDDNSVVSLHPATMEKLQLFRGDTILIKGKKRKDTVCIALADETCEEPKIRMNKVVRSNLRVRLGDVISVHQCPDVKYGKRVHILPVDDTVEGVTGNLFDAYLKPYFLEAYRPVRKGDLFLVRGGMRSVEFKVIETDPAEYCVVAPDTEIFCEG
B4: Tgfbr3l 36-211 (Mus musculus, UniProt D3YZZ2); sequence looked up; chain RRPLFSLELSDAEDAFPRRAGPLEVPADSHVFVQAALARPSPRWGLALHRCSVTPSSRPTLGPALVLLRGGCPADDSVSFSPPPRPDAASVSRFSFRLRPVFNASVQFLHCQISRCRRRSSHHRRAVRLTPVPLTPPAPLRCLPQDEACAGSSLSLGTDSPHLHMLTQPIVVTIPR
B5: TGM4 (Heligmosomoides polygyrus); chain GCMPFSDETASYKYLTERSRNDETPAQNDSSGAYPDHTHVKRFCKGLHGEEKTGRYVGICLGSEWVYYQGVQECQDRRCSPLPTNDTVTYEYLKATVNAGINFNITVHPDASGKYPELTYIKRICKNFPADSKVQGHIIGMCYNAEWRFSSTPTCPPSGCPPLPDDGIVFYEYYGYAGNRHTVGRAVSKDSSGNYPPQTHARRRCRALSQKADPGEFVGICYKSGTTGESHWDYYSHIRKCPDPRCKPLETNVSVHYEYFTMTNETGRKEGTPAEVDKGGKYPQHTCVRKFCDKSPYTCSVKGPIFGECLDGQWNFTALDECLNARGCNSDDLFDKLGFEGVMVREEEGSDSYKDDFVRFYATGSKVNAECKGKTVQLECSDGEWHDPGTKTVHRCTKEGIRAL
B6: BRAF 442-724 (Homo sapiens, UniProt P15056); sequence looked up; chain GRRDSSDDWEIPDGQITVGQRIGSGSFGTVYKGKWHGDVAVKMLNVTAPTPQQLQAFKNEVGVLRKTRHVNILLFMGYSTKPQLAIVTQWCEGSSLYHHLHIIETKFEMIKLIDIARQTAQGMDYLHAKSIIHRDLKSNNIFLHEDLTVKIGDFGLATVKSRWSGSHQFEQLSGSILWMAPEVIRMQDKNPYSFQSDVYAFGIVLYELMTGQLPYSNINNRDQIIFMVGRGYLSPDLSKVRSNCPKAMKRLMAECLKKKRDERPLFPQILASIELLARSLPKI
B7: EFR3A 721-791 (Homo sapiens, UniProt Q14156); chain SNTEEITFEALKKAIDTSGMEEQEKEKRRLVIEKFQKAPFEEIAAQCESKANLLHDRLAQILELTIRPPPS
B8: PUX6 269-435 (Arabidopsis thaliana, UniProt F4IXN6); chain VTYTVTIWRNGFTVDDDPFKSLDDPENAAFLEYMPEDNKFGVPTTTRSTSCSSQTHQELQTLAGSESTSTEPPLTTTQPPSMSSLVVDPAAPTTSIQLILADSTRIVTQFNTHHTIRDIRCFIDTSRPDGSKDYQLLIMGSPPTPLSDFDQTIEKAGIANSVLVQKF
B9: lat-1 32-136 (Caenorhabditis elegans, UniProt G5EDW2); chain TTDESGTISHTICDGEAAELSCPAGKVISIVLGNYGRFSVAVCLPDNDIVPSNINCQNHKTKSILEKKCNGDSMCYFTVDKKTFTEDPCPNTPKYLEVKYNCVVP
B10: C1S 438-688 S632A (Homo sapiens, UniProt P09871); chain IIGGSDADIKNFPWQVFFDNPWAGGALINEYWVLTAAHVVEGNREPTMYVGSTSVQTSRLAKSKMLTPEHVFIHPGWKLLEVPEGRTNFDNDIALVRLKDPVKMGPTVSPICLPGTSSDYNLMDGDLGLISGWGRTEKRDRAVRLKAARLPVAPLRKCKEVKVEKPTADAEAYVFTPNMICAGGEKGMDSCKGDAGGAFAVQDPNDKTKFYAAGLVSWGPQCGTYGLYTRVKNYVDWIMKTMQENSTPRED
B11: BRAF kinase 448-723 K723G/P722S/S720E/L716E/S713E/Q709R/L706S/A688R/Y673S/F667Y/K630S/V600E/L588N/Q562R (Homo sapiens, UniProt P15056); sequence looked up; chain DDWEIPDGQITVGQRIGSGSFGTVYKGKWHGDVAVKMLNVTAPTPQQLQAFKNEVGVLRKTRHVNILLFMGYSTKPQLAIVTQWCEGSSLYHHLHASETKFEMKKLIDIARQTARGMDYLHAKSIIHRDLKSNNIFLHEDNTVKIGDFGLATEKSRWSGSHQFEQLSGSILWMAPEVIRMQDSNPYSFQSDVYAFGIVLYELMTGQLPYSNINNRDQIIYMVGRGSLSPDLSKVRSNCPKRMKRLMAECLKKKRDERPSFPRILAEIEELARELSG
B12: BRAF kinase 448-723 K723G/P722S/S720E/L716E/S713E/Q709R/L706S/A688R/Y673S/I666R/K630S/V600E/L588N/Q562R (Homo sapiens, UniProt P15056); sequence looked up; chain DDWEIPDGQITVGQRIGSGSFGTVYKGKWHGDVAVKMLNVTAPTPQQLQAFKNEVGVLRKTRHVNILLFMGYSTKPQLAIVTQWCEGSSLYHHLHASETKFEMKKLIDIARQTARGMDYLHAKSIIHRDLKSNNIFLHEDNTVKIGDFGLATEKSRWSGSHQFEQLSGSILWMAPEVIRMQDSNPYSFQSDVYAFGIVLYELMTGQLPYSNINNRDQIRFMVGRGSLSPDLSKVRSNCPKRMKRLMAECLKKKRDERPSFPRILAEIEELARELSG
B13: TEPSIN W188S/D189S/E190S/L191S (Homo sapiens, UniProt Q96N21); chain MAAAPPLRDRLSFLHRLPILLKGTSDDDVPCPGYLFEEIAKISHESPGSSQCLLEYLLSRLHSSSGHGKLKVLKILLYLCSHGSSFFLLILKRNSAFIQEAAAFAGPPDPLHGNSLYQKVRAAAQDLGSTLFSDTVLPLAPSQPLGTPPATGMGSQARPHSTLQGFGYSKEHGRTAVRHQPGQAGGGSSSSDSGPSSQNSSQNSDLSRVSDSGSHSGSDSHSGASREPGDLAERVEVVALSDCQQELSLVRTVTRGPRAFLSREEAQHFIKACGLLNCEAVLQLLTCHLRGTSECTQLRALCAIASLGSSDLLPQEHILLRTRPWLQELSMGSPGPVTNKATKILRHFEASCGQLSPARGTSAEPGPTAALPGPSDLLTDAVPLPGSQVFLQPLSSTPVSSRSPAPSSGMPSSPVPTPPPDASPIPAPGDPSEAEARLAESRRWRPERIPGGTDSPKRGPSSCAWSRDSLFAGMELVACPRLVGAGAAAGESCPDAPRAPQTSSQRTAAKEPPGSEPSAFAFLNA
UniProt Q02763, sequence (whole entry, looked up): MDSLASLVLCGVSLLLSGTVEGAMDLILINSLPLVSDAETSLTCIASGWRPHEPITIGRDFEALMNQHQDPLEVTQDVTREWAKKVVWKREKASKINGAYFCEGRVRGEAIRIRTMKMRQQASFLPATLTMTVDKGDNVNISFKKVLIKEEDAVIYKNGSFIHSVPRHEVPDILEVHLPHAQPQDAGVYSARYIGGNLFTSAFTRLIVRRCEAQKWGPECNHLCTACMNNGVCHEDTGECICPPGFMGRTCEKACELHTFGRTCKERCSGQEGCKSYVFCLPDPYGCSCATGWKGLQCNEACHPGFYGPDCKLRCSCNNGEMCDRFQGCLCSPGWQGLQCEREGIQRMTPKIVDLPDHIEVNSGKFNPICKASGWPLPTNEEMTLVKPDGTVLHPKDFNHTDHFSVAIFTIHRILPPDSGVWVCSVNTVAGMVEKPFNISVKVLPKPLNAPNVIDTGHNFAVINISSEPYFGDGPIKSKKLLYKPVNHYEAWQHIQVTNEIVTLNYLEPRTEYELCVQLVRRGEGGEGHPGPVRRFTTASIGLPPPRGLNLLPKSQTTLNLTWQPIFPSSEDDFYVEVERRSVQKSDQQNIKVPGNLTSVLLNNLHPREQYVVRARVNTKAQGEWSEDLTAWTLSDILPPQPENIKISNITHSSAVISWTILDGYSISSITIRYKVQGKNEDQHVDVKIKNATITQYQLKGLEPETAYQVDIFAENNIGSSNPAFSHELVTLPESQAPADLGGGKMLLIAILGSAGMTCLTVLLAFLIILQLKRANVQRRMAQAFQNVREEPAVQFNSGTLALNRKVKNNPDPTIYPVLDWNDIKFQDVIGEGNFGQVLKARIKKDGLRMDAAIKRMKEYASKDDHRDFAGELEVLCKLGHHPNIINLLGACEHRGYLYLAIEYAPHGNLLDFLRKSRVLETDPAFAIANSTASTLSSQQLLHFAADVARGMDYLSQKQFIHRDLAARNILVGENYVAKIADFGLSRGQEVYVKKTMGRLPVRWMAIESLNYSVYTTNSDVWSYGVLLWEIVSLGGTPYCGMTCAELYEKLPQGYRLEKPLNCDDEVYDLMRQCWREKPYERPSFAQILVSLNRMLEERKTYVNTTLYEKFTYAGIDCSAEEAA
UniProt P05111, sequence (whole entry, looked up): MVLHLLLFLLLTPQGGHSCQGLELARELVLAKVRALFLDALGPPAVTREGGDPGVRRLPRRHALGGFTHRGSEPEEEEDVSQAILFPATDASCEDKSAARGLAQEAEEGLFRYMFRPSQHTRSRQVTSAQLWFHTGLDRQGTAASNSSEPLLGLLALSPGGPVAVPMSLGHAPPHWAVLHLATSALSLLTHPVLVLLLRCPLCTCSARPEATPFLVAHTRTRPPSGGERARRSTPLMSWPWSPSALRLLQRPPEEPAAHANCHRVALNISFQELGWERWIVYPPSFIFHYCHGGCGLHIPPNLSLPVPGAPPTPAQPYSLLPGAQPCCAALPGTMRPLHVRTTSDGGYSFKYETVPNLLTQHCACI
UniProt Q61790, sequence (whole entry, looked up): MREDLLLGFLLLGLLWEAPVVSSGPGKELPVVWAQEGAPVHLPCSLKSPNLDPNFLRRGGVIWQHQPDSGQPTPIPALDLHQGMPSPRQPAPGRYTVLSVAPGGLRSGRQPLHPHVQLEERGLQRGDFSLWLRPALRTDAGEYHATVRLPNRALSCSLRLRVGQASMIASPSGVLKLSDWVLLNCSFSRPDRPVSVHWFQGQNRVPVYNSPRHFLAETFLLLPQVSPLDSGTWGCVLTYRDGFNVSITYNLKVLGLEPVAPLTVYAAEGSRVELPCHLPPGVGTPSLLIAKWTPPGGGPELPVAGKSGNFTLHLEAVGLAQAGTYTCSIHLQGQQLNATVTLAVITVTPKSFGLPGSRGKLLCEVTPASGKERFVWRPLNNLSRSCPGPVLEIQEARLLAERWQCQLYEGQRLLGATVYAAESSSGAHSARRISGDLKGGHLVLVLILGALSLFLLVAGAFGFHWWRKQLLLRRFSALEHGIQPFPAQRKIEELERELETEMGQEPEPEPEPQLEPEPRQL
UniProt P05155, sequence (whole entry, unmodified, looked up): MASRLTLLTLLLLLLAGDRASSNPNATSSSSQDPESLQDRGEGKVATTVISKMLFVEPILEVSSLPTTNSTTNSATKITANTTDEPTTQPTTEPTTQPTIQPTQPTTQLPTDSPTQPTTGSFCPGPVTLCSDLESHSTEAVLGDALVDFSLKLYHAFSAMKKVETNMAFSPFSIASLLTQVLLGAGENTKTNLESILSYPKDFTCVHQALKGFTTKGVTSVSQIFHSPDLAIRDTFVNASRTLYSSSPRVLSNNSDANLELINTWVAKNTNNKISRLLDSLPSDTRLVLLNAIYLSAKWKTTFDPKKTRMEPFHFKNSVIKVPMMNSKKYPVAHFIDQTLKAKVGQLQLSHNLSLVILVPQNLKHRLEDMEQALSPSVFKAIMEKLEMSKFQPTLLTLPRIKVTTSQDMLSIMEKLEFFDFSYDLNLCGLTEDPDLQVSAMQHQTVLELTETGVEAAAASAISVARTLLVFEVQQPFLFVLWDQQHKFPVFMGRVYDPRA

Molecule	target or system	assay	system	setting	scale	measurement	value
GSGAGKETRV	human MAGI1-3/6 PDZ construct (MBP fusion)	automated holdup	peptide, purified PDZ protein	concentration not given, unit not given	baseline: biotin control resin, higher = stronger binding	binding intensity	0.412
B1 (ANGPT1 283-498)	TEK 23-748 (Homo sapiens, UniProt Q02763)	SPR	–	–	–	koff	0.0811 s⁻¹
B2 (IgG L:G68E)	IL13 fragment (Homo sapiens)	SPR	antibody	–	–	koff	0.0027 s⁻¹
KKVTFGLNRNMTAEFKKTDKSILVSPTGPSRVAFDPEQKPLHGVLK (RRP1B 682-727 (Homo sapiens, UniProt Q14684))	PPP1CA 7-330 Q20R (Homo sapiens, UniProt P62136)	SPR	–	–	–	koff	0.012 s⁻¹
EEEWAREIGAYLRRAADDLNAQYERRR (PUMA residues 130-156 M144A/Q140Y; N-acetyl, C-terminal amide)	Mcl1 152-308	SPR	peptide	–	–	koff	0.0003 ± 5e-05 s⁻¹
ptsH fragment (Escherichia coli) (sequence not shown)	ptsI fragment (Escherichia coli)	NMR relaxation dispersion	–	with BSA	–	koff	10200 s⁻¹
B3 (CDC48A 1-190)	PUX6 (Arabidopsis thaliana, UniProt F4IXN6)	BLI	–	25 °C	–	koff	0.00036 s⁻¹
B4 (Tgfbr3l 36-211)	inhibin B mature (UniProt P05111)	SPR	–	–	–	koff	0.014 s⁻¹
EEEWAREFGAQLRRAADDLNAQYERRR (PUMA residues 130-156 M144A/I137F; N-acetyl, C-terminal amide)	Mcl1 152-308	SPR	peptide	–	–	koff	0.0275 ± 0.0022 s⁻¹
B5 (TGM4)	TGFBR1 extracellular domain (Homo sapiens)	SPR	–	–	–	koff	0.00073 s⁻¹
SEKHFRETEV	human MAGI1-2/6 PDZ construct (MBP fusion)	surface plasmon resonance	peptide	concentration not given	higher = stronger binding	normalised SPR binding response	34.9 normalised RU
B6 (BRAF 442-724)	MAP2K1	BLI	–	–	–	koff	0.00411 s⁻¹
CTLA4 extracellular domain, monomer (Homo sapiens)	ipilimumab Fab	SPR	–	–	–	koff	0.0281 s⁻¹ and 0.0206 s⁻¹
B7 (EFR3A 721-791)	TTC7A/FAM126A FAM126A 1-308	BLI	–	–	–	koff	0.000258 s⁻¹
CVPMTYRAC (cyclic peptide; cyclic, NOTA-Bn conjugated)	Lag3 (Mus musculus, UniProt Q61790)	SPR	peptide	–	–	koff	0.00239 s⁻¹
B8 (PUX6 269-435)	CDC48A 1-190 (Arabidopsis thaliana, UniProt P54609)	BLI	–	25 °C	–	koff	0.00062 s⁻¹
B9 (lat-1 32-136)	tol-1 extracellular region (Caenorhabditis elegans)	SPR	–	–	–	koff	0.31 s⁻¹
B10 (C1S 438-688 S632A)	SERPING1 111-500 H334A/Q338A (Homo sapiens, UniProt P05155)	SPR	–	added: Ca2+	–	koff	0.0915 s⁻¹
B7 (EFR3A 721-791)	TTC7A/FAM126A 1-308	BLI	–	–	–	koff	0.000258 s⁻¹
B11	MAP2K1	BLI	–	–	–	koff	0.00055 s⁻¹
MBL-A mature, hydroxylysine, hydroxyproline in collagen (Rattus norvegicus, UniProt P19999)	C1r/C1s full-length tetramer (Homo sapiens)	SPR	–	added: CaCl2 140 mM	–	koff	0.00153 s⁻¹
CALLLSAPRR (GOT2 (Gallus gallus); fluorescein label)	HSPA9 mature A475W (Homo sapiens, UniProt P38646)	FP	peptide	–	–	koff	0.00133 s⁻¹
B12	MAP2K1	BLI	–	–	–	koff	0.00618 s⁻¹
B13 (TEPSIN W188S/D189S/E190S/L191S)	MAP1LC3B 1-120 (Homo sapiens, UniProt Q9GZQ8)	BLI	–	–	–	koff	0.078 s⁻¹ and 0.085 s⁻¹ and 0.068 s⁻¹ and 0.077 s⁻¹

A few entries again:
Molecule	target or system	assay	system	setting	scale	measurement	value
B2 (IgG L:G68E)	IL13 fragment (Homo sapiens)	SPR	antibody	–	–	koff	0.0027 s⁻¹
B11	MAP2K1	BLI	–	–	–	koff	0.00055 s⁻¹
B7 (EFR3A 721-791)	TTC7A/FAM126A 1-308	BLI	–	–	–	koff	0.000258 s⁻¹
B6 (BRAF 442-724)	MAP2K1	BLI	–	–	–	koff	0.00411 s⁻¹
